Assay results collected from several papers.
Each numbered part is a random draw from the data of one study; scales do not carry over between parts. Substitutions count along the parent as printed.

Set 1
Target: XBP1, bZIP domain (human)
Technique: DHFR protein complementation
Sample: yeast
Setting: single substitutions, most at no-binding floor
Reference: wild-type JUN-FOS pair
Reading: higher = stronger binding
Starting sequence: JUN, bZIP domain (human); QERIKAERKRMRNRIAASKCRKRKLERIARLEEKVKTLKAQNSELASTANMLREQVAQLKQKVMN; partner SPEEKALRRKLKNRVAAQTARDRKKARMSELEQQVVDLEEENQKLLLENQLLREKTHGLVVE
Variant | binding fitness [natural log]
A29W | -1.22
A46K | -0.169
V35P | -1.48
L52N | -1.48
S43L | -0.551
Q41W | -1.39
K34P | -1.48
A40E | -0.637
K34S | -1.27
A49H | -0.701
L31F | -1.46
E44A | -0.768
M51R | -0.628
K36M | -0.631
R30D | -0.371

Set 2
Target: Centromere-binding protein 1, full length, N-terminal tag (CBF1, Saccharomyces cerevisiae, UniProt P17106, residues 1-351)
Chain of UniProt P17106 (whole entry, looked up): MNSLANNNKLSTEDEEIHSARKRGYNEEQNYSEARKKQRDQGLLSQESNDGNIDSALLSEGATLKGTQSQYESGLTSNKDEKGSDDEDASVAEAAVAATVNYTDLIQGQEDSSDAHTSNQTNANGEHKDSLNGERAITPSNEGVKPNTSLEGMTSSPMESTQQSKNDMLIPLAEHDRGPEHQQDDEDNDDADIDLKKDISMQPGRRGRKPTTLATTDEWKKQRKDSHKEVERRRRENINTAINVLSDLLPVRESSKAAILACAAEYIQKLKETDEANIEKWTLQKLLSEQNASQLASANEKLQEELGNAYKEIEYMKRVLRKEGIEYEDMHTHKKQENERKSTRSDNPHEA
Technique: protein-binding microarray
Molecule type: double-stranded DNA, one strand shown
Sample: in vitro
Concentration: 0.8 µM
Setting: whole 60-bp probe, no competitor
Reading: higher = stronger binding
Constant ends, left off below: … GTCTTGATTCGCTTGACGCTGCTG
Strand | fluorescence intensity [a.u.]
GAATTTGACTCAAGTGTCACGTGCATCAGTTTTTAG | 15900
CTACGGTTGTCTTTTCATGTGAGCAGAACTAAATTC | 691
CTAAGAACAGCTCTCCGCGTGTATATCTTTTTTTTC | 529
CTATTTTACATTAATGACGTCATGGTAGTGCTCTTC | 528
GAATTCTTCAACTATCGCGTGAAAAATAGTACGTAG | 603
GAAAAAAGATCTCATAGCGTGACATCCGTATATTAG | 765
GAAAGAAAAAAGAGATGGGTGATGAATACGTTTTAG | 516
CTATTTATTTCTCGAATCACCTGTATTTGTGCCTTC | 736
CTATTATATTCGTGGAAGGTGACGATAGTAATATTC | 591
GAATTCATAATACCCCACGAAAAATCATTAATCTAG | 500
GAAACTCATTAAAGCCACCTGACTCAAGTCTTCTAG | 1140
TGTACGAAGCTATCTCACCTTATTATAGTAGTTAGG | 535
CTAAGAACGAACCCGCACGACGCGTGCAACGCTTTC | 602
CTACTATTACAATTGTTCGTGATATGTATACATTTC | 581
GAAGGTCTCGAAGAACATCAGCACCACGCCCGCTAG | 554
GAATTCAGTCCATTGCGCGTGCAAGAATTTTCCTAG | 953
CTATTACTCCATCATCTGACACCTAGAGACGTATTC | 1060
CTACTTTACAATCGTGATGTGCCTATTTAATTCTTC | 589
CTAGCTCCATCGGGACAGGAGATTTTATTAATGTTC | 491
CTAATTTCATCACCCCACGCCATTGTTTTGTCCTTC | 563
CTACATATTTTGGCACGGGTGATGTACCGATCTTTC | 672

Set 3
Target: CCNB2, cyclin fold, Cln2 fusion (human)
Technique: yeast growth competition, sequencing
Sample: yeast
Setting: weak parent motif
Reference: not given
Reading: higher = stronger binding
Starting sequence: USP37 docking peptide (human); PSAKRSLGFLPQP; partner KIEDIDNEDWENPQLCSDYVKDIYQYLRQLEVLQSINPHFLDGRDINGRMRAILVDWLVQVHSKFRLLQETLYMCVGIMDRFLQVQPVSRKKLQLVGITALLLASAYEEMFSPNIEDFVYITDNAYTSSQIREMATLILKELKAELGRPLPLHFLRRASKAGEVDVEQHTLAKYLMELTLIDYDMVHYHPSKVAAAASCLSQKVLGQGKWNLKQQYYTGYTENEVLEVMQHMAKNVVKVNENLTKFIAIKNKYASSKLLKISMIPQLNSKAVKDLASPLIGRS
Variant | normalised enrichment score
P11A | -0.0358
G8A | 0.57
S6A | 0.307
S2A | 0.772
F9A | -0.0386
P13A | 0.236

Set 4
Target: ABI1, truncated, D143A, DHFR fusion (Arabidopsis thaliana)
Technique: DHFR PCA, deep sequencing
Sample: yeast
Setting: methotrexate growth selection, single substitutions
With: (+)-ABA 58 µM
Reference: wild-type fitted maximum
Reading: higher = stronger binding
Starting sequence: PYL1, truncated, DHFR fusion (Arabidopsis thaliana); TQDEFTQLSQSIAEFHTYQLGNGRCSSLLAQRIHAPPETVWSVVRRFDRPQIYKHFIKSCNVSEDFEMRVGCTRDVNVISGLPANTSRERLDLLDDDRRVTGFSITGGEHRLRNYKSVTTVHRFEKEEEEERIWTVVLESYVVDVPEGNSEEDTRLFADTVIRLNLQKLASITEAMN; partner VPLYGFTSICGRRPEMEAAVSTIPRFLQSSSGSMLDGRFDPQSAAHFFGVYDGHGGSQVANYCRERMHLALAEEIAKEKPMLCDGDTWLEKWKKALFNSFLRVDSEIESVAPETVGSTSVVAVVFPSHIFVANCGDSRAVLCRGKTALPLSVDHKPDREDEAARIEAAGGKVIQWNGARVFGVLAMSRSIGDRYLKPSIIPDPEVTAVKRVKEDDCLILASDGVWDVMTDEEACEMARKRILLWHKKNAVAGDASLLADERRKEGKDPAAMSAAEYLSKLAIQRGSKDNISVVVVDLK
Variant | relative binding score
A84D | 6.6%
F157A | 11.8%
E38N | 67.9%
S27A | 74.1%
E151S | 82%
V137T | 12.6%
N177F | 76.2%
E128I | 89.5%
I162K | 7.09%
G108N | -9.75%
V76K | -17.9%
V78K | -0.825%
V161T | 23%
S26K | 68.6%
V100C | 82.4%
F103I | 31%
C25Q | 18.4%
V44A | 58.1%
L164K | 72.6%

Set 5
Target: Histone acetyltransferase KAT6A, winged helix 2, GST fusion (KAT6A, Homo sapiens, UniProt Q92794, residues 85-181)
Technique: protein binding microarray
Molecule type: double-stranded DNA, one strand shown
Sample: in vitro
Concentration: not given
Setting: 8-mer, flanks averaged, mean of 2 arrays, mostly near background
Reference: not given
Reading: higher = stronger binding
Target sequence (chain): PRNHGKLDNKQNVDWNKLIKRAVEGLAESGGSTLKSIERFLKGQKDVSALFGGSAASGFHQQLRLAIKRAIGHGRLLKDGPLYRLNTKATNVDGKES
Strand | E-score
GACTCCTA | -0.216
CACGGGGA | 0.0834
ACGAAATC | 0.0672
CCGGGATC | 0.17
AACGGTAA | -0.29
GCTACACC | 0.0182
GATTTGAC | -0.147
AAGCAGCA | 0.0775
GTCTATCA | -0.00668
ATTAATGC | -0.021
GCAATTTA | 0.0743
AAACTAAA | 0.0428
GCGGTGTA | 0.048
GAGCAAGC | 0.121
CCGAAGGA | 0.0245
ACAGATCC | 0.0266
AGCAGTGA | 0.0957
GCATGATA | 0.0564
TATTACGA | -0.00019
GAAGTATA | 0.0126
ACATGATA | 0.016
AAAATCAC | 0.0694
CGGTTAGA | -0.082
AGACGGAA | -0.0644
ACTAGCTG | -0.0898

Set 6
Target: RNA binding protein fox-1 homolog 2, RRM domain, GST-SBP tag (RBFOX2, Homo sapiens, UniProt O43251-10, residues 100-194)
Technique: RNA Bind-n-Seq
Molecule type: RNA
Sample: in vitro
Concentration: 365 nM
Setting: natural RNA segment, single round, ends assumed
Reference: no-protein control
Reading: higher = stronger binding
Constant ends, left off below: GGGAGUUCUACAGUCCGACGAUC … UGGAAUUCUCGGGUGCCAA
Residues (chain): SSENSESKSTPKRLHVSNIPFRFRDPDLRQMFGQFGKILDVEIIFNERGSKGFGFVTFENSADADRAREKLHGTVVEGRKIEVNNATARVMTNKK
Strand | RBNS enrichment (R)
ACCCCAUAUUGGAAAAUGAAUGUCCUUUAGUAUUCCUGAAGCUAAAGCUUGGGUGUCUCCUCCCAGCUCUUGUUACAGUGUUUCUGACUGCUUCACCCUUCACAGAUUUA | 0.539
CAGUGUUAUGAUCUCUUCCAGCUGUGCUCCAGUAGGGCGGAGAGCCUCGCACGUGCACCAGACCCCAUGAGAGGGCCGAGCUCUGCGAGGGGGAAAUGCCUUUGCAGCUC | 0.562
AAGUUUGGACGGUACUAAAGUCACCUCUGACUUCCUUCUGGGUUCCCCUACUACAGUUCUUGCUUCCAUGCAAGGUGAACCUGAGGGGAGGAAGGCGUGGCUCUCUGAAA | 0.297
UCUGUUACAUACUUUUUUUAACCUGUUUUGUUUUAUCAUAUAUGCAUUAAAAGUAUUAUCUUUAUCAACAUUUGCUGCUACUGUGUUAACAUUUUUGUUUUGCUUGCCAU | 1.94
GAAAGUAUUUACCUUAUUUAUAUACCUGAAUGUUCCUAUUAAACAAAUAAACAUAUACUAAAUUCUAGAUUGUGCGUGUUUUUUGAUGGGAGAAGCCCUUUUAAAACGAU | 0.957
CCUCUGCCUUCUUUCCUGGAACUCAGGGUGUGGGGACUGAGCCUGUAGGGGACAGCAUGCCGUCUUGCUGUGGCCACUCCCAAGUGUGCCCUCUUCCCUCUUUACACAUC | 12.3
AACAGCAGUUGCAUUGAUUUUGAAAACAAACCCCCUUGUUAUCUGAACAUGUUUUCUUCAGGAACAACCAGAGGUAUCACAAACACUGUUACUCAUCUACUGGCUCAGAC | 0.376
UUUUUGUAUUCUGAUUGCCACGUUAAUCUGUAAUCGUUAAGUACCCAUGAAAGAAUGUGUUUCAGUAUCAGUGCUUUUUUGGUACUUUAACAAGUAUUGUAGGCACGGUG | 0.46
UUUUGUAUGAAUUUUUAACCUUUUAACAAACUCCCAAAUCUGGUUGAUGCCUUUGACAGUGAUGAAAACGAUUUCACCACAUCUGAAUCCAGAGAAACCGGCUUUUUUUC | 0.652
AGGGACACUCCUACAGGUGAGAGUGUAUACCUUACUCUCUCAGAUAAGUGGCUGGACUUAUCUUGUGAUUUGGGGCCAUGGAAGAUUGGAAACAAAGAUUUUAAGCCUUC | 0.465
GAUGUAUGAUAAAGAUGAUCUAAUUUGUGAAUGCAUAUGUGUGCGUGGUUACUUUUUAUAAUGUGAAAUGGAUAAUGAGCGUAUUUAAAAUAAAGCAGAGGUUAAUGAGA | 2.43
UCCUAACCUCUUCUGGAAACACCCUAGCAUGUUUUCCCAGCUAGCUGGGUAUCCGUUCACCCAACCAAGACGACCAUGCAAUCAACCAUCACACUUAAAUGUUUUUGUUU | 1.1
